Measurements collected from several papers.
“And” joins repeats or separate records; there may be more than shown. ± gives the spread as reported.
B1: UGT76G1 (Stevia rebaudiana, UniProt Q6VAB4); chain MENKTETTVRRRRRIILFPVPFQGHINPILQLANVLYSKGFSITIFHTNFNKPKTSNYPHFTFRFILDNDPQDERISNLPTHGPLAGMRIPIINEHGADELRRELELLMLASEEDEEVSCLITDALWYFAQSVADSLNLRRLVLMTSSLFNFHAHVSLPQFDELGYLDPDDKTRLEEQASGFPMLKVKDIKSAYSNWQILKEILGKMIKQTKASSGVIWNSFKELEESELETVIREIPAPSFLIPLPKHLTASSSSLLDHDRTVFQWLDQQPPSSVLYVSFGSTSEVDEKDFLEIARGLVDSKQSFLWVVRPGFVKGSTWVEPLPDGFLGERGRIVKWVPQQEVLAHGAIGAFWTHSGWNSTLESVCEGVPMIFSDFGLDQPLNARYMSDVLKVGVYLENGWERGEIANAIRRVMVDEEGEYIRQNARVLKQKADVSLMKGGSSYESLESLVSYISSL
B2: rCR (Lodderomyces parapsilosis, UniProt A1X808); chain MSIPSSQYGFVFNKQSGLKLRNDLPVHKPKAGQLLLKVDAVGLCHSDLHVIYEGLDCGDNYVMGHEIAGTVAAVGDDVINYKVGDRVACVGPNGCGGCKYCRGAIDNVCKNAFGDWFGLGYDGGYQQYLLVTRPRNLSRIPDNVSADVAAASTDAVLTPYHAIKMAQVSPTSNILLIGAGGLGGNAIQVAKAFGAKVTVLDKKKEARDQAKKLGADAVYETLPESISPGSFSACFDFVSVQATFDVCQKYVEPKGVIMPVGLGAPNLSFNLGDLALREIRILGSFWGTTNDLDDVLKLVSEGKVKPVVRSAKLKELPEYIEKLRNNAYEGRVVFNP
Chain of UniProt Q92851 (whole entry, looked up): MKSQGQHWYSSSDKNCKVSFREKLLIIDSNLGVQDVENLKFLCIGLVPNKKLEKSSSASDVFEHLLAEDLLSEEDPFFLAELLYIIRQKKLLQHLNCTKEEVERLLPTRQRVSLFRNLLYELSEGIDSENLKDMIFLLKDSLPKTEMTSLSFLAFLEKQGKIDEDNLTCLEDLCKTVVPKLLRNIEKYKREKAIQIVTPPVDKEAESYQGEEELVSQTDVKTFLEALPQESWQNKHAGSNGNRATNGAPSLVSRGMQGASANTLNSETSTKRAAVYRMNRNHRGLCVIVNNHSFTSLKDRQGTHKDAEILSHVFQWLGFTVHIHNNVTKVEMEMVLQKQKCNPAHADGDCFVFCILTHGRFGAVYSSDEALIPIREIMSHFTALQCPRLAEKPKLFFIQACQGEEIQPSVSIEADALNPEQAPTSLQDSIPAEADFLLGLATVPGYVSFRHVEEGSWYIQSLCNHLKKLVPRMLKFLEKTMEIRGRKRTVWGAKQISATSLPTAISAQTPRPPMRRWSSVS

CC(C)C[C@H](NC(=O)[C@H](Cc1ccc(O)cc1)NC(=O)[C@@H](CCCNC(=N)N)NC(=O)[C@@H](CO)NC(=O)[C@H](Cc1ccccc1)NC(=O)[C@H](CC1CCCCC1)NC(=O)[C@H](CC(=O)O)NC(=O)CN1CCN(CC(=O)O)CCN(CC(=O)O)CCN(CC(=O)O)CC1)C(=O)N[C@@H](Cc1c[nH]c2ccccc12)C(=O)N[C@@H](CO)C(=O)O [copper-64 labelled]  activity concentration (human, spleen; concentration not given, 24 h): 492 Bq/mL and 474 Bq/mL and 650 Bq/mL and 573 Bq/mL and 703 Bq/mL and 410 Bq/mL
CC(C)C[C@H](NC(=O)[C@@H](CCCCNC(=O)[C@@H](Cc1ccccc1)NC(=O)CCCCCNC(=O)CN1CCN(CC(=O)O)CCN(CC(=O)O)CCN(CC(=O)O)CC1)NC(=O)[C@H](Cc1ccc(O)cc1)NC(=O)[C@H](CO)NC(=O)[C@H](Cc1c[nH]c2ccccc12)NC(=O)[C@H](Cc1c[nH]cn1)NC(=O)[C@@H]1CCC(=O)N1)C(=O)N[C@@H](CCCNC(=N)N)C(=O)N1CCC[C@H]1C(=O)NCC(N)=O [indium-111 labelled]  tissue uptake (female athymic nude mice, liver; intravenous, 0.037 MBq, 2 h): 0.47 ± 0.11 %ID/g
CCCC[C@H](NC(=O)COCCOCCNC(=O)CN1CCN(CC(=O)O)CCN(CC(=O)O)CC1)C(=O)N[C@H]1CC(=O)NCCCC[C@@H](C(N)=O)NC(=O)[C@H](Cc2c[nH]c3ccccc23)NC(=O)[C@H](CCCNC(=N)N)NC(=O)[C@@H](Cc2ccccc2)NC(=O)[C@H](Cc2c[nH]cn2)NC1=O [technetium-99m labelled]  tissue uptake (C57 mouse, heart; intravenous, 0.037 MBq, 24 h): 0.05 ± 0.01 %ID/g
B1 (UGT76G1)  kcat (C=C1C[C@@]23CC[C@H]4[C@@](C)(CCC[C@@]4(C)C(=O)O[C@@H]4O[C@H](CO)[C@@H](O)[C@H](O)[C@H]4O)[C@@H]2CC[C@]1(O[C@@H]1O[C@H](CO)[C@@H](O)[C@H](O)[C@H]1O[C@@H]1O[C@H](CO)[C@@H](O)[C@H](O)[C@H]1O)C3; steady-state kinetics; pH 7.25, 40 °C): 1.21 ± 0.0498 s⁻¹
CCCC[C@H](NC(=O)CCCCCCCNC(=O)CN1CCN(CC(=O)O)CCN(CC(=O)O)CC1)C(=O)N[C@H]1CC(=O)NCCCC[C@@H](C(N)=O)NC(=O)[C@H](Cc2c[nH]c3ccccc23)NC(=O)[C@H](CCCNC(=N)N)NC(=O)[C@@H](Cc2ccccc2)NC(=O)[C@H](Cc2c[nH]cn2)NC1=O [technetium-99m labelled]  tissue uptake (C57 mouse, kidneys; intravenous, 0.037 MBq, 4 h): 0.26 ± 0.1 %ID/g
CASP10 (Homo sapiens, UniProt Q92851)  kcat/Km (CC[C@H](C)[C@H](NC(C)=O)C(=O)N[C@@H](CCC(=O)O)C(=O)N1CCC[C@H]1C(=O)N[C@@H](CC(=O)O)C(=O)Nc1ccc2c(C)cc(=O)oc2c1; steady-state kinetics; 37 °C): 4220 M⁻¹ s⁻¹
Cc1ncsc1-c1ccc(C(C)NC(=O)C2CC(O)CN2C(=O)C(NC(=O)CCCCCCCCCCN2CCCC(Nc3ncc(Cl)c(Nc4ccccc4S(=O)(=O)C(C)C)n3)C2)C(C)(C)C)cc1 (stereo not drawn)  log2 fold change (22Rv1; RNA-seq, refers to: SGPP2 mRNA; concentration not given; reference: DMSO): -2.73
COC1CN([C@H]2CC[C@H]([C@@]3(C)Oc4c(Cl)cc(C(=O)NCc5c(SC)cc(C)[nH]c5=O)c(C)c4O3)CC2)C1  log2 fold change (RNA-seq, refers to: TRPC1 mouse homolog; mouse, HT-1376 xenograft, whole blood; dose not given; reference: vehicle): 0.348
CC(C)C[C@@H](NC(=O)[C@@H](CC(C)C)NC(=O)[C@@H](CC(=O)O)NC(=O)[C@@H](CC(C)C)NC(=O)[C@@H](CC(C)C)NC(=O)[C@@H](CC(C)C)NC(=O)[C@H](NC(=O)[C@@H](CC(=O)O)NC(=O)[C@H](NC(=O)[C@H]1CCCN1C(=O)[C@@H](Cc1ccccc1)NC(=O)[C@@H](CC(C)C)NC(=O)[C@@H](CC(C)C)NC(=O)[C@@H](CC(=O)O)NC(=O)[C@@H](CC(C)C)NC(=O)[C@@H](Cc1ccc(O)cc1)NC(=O)[C@@H](C)NC(=O)[C@@H](CCCNC(=N)N)NC(=O)[C@@H](Cc1c[nH]c2ccccc12)NC(=O)[C@H]1CCCN1C(=O)[C@@H](CC(N)=O)NC(=O)[C@@H](CCC(N)=O)NC(=O)[C@@H](CC(=O)O)NC(=O)[C@@H](CC(=O)O)NC(=O)[C@@H](CSC1CC(=O)N(CCNC(=O)CN2CCN(CC(=O)O)CCN(CC(=O)O)CC2)C1=O)NC(=O)[C@@H](C)N)[C@H](C)O)[C@H](C)O)C(=O)N[C@H](Cc1c[nH]c2ccccc12)C(=O)O (stereo partly drawn) [fluorine-18 labelled]  tissue uptake (female C57BL/6 mice, B16-F10 melanoma, tumor; intravenous, 6 h): 8.02 %ID/g
Nc1ncc(-c2cc(-c3cnn(CC(F)(F)F)c3)ncc2F)nc1C(=O)NC1CNCC(F)C1 (stereo not drawn)  remaining binding (AURKB; KINOMEscan; 1 µM; reference: DMSO control): 100%
CN(C)c1ccc(Nc2n[nH]c3nc(-c4ccccc4)nc(N)c23)cc1  CC50 (HeLa Ohio; 72 h): > 145 µM
B2 (rCR)  kcat (CC(=O)c1cccc(Cl)c1; steady-state kinetics; pH 7, 30 °C, added: NADH 0.5 mM): 1.57 ± 0.12 s⁻¹

Some of these lines once more:
CC(C)C[C@@H](NC(=O)[C@@H](CC(C)C)NC(=O)[C@@H](CC(=O)O)NC(=O)[C@@H](CC(C)C)NC(=O)[C@@H](CC(C)C)NC(=O)[C@@H](CC(C)C)NC(=O)[C@H](NC(=O)[C@@H](CC(=O)O)NC(=O)[C@H](NC(=O)[C@H]1CCCN1C(=O)[C@@H](Cc1ccccc1)NC(=O)[C@@H](CC(C)C)NC(=O)[C@@H](CC(C)C)NC(=O)[C@@H](CC(=O)O)NC(=O)[C@@H](CC(C)C)NC(=O)[C@@H](Cc1ccc(O)cc1)NC(=O)[C@@H](C)NC(=O)[C@@H](CCCNC(=N)N)NC(=O)[C@@H](Cc1c[nH]c2ccccc12)NC(=O)[C@H]1CCCN1C(=O)[C@@H](CC(N)=O)NC(=O)[C@@H](CCC(N)=O)NC(=O)[C@@H](CC(=O)O)NC(=O)[C@@H](CC(=O)O)NC(=O)[C@@H](CSC1CC(=O)N(CCNC(=O)CN2CCN(CC(=O)O)CCN(CC(=O)O)CC2)C1=O)NC(=O)[C@@H](C)N)[C@H](C)O)[C@H](C)O)C(=O)N[C@H](Cc1c[nH]c2ccccc12)C(=O)O (stereo partly drawn) [fluorine-18 labelled]  tissue uptake (female C57BL/6 mice, B16-F10 melanoma, tumor; intravenous, 6 h): 8.02 %ID/g
